{"data": "Published values of several laboratories", "note": "Parts stem from different laboratories: compare values within a part only.", "sequence of UniProt Q52WX2 (whole entry, looked up)": "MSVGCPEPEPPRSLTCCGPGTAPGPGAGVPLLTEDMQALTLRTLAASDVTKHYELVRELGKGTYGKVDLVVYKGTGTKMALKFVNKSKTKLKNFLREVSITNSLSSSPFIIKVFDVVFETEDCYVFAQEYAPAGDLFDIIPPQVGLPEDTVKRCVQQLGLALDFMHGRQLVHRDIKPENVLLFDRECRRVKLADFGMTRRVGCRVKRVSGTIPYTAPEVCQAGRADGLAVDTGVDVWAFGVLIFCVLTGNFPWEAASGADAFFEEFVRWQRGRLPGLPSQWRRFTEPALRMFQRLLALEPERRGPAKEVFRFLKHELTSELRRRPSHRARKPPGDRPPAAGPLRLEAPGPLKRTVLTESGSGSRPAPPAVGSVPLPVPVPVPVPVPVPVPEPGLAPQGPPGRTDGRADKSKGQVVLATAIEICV", "sequence of UniProt Q9BWU1 (whole entry, looked up)": "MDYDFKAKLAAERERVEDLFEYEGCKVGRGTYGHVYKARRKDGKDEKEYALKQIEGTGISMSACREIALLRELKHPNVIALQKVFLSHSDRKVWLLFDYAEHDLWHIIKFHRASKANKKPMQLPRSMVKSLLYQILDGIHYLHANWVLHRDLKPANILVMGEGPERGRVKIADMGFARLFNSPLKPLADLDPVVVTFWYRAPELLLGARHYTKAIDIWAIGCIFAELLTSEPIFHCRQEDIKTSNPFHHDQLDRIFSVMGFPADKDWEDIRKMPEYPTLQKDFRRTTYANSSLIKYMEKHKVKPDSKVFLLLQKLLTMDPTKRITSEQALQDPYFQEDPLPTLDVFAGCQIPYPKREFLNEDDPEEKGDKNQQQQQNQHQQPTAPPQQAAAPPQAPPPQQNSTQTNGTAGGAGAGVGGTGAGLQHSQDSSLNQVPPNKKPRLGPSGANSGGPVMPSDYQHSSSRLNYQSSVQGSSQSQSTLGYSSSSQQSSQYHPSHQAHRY", "sequence of UniProt O14733 (whole entry, looked up)": "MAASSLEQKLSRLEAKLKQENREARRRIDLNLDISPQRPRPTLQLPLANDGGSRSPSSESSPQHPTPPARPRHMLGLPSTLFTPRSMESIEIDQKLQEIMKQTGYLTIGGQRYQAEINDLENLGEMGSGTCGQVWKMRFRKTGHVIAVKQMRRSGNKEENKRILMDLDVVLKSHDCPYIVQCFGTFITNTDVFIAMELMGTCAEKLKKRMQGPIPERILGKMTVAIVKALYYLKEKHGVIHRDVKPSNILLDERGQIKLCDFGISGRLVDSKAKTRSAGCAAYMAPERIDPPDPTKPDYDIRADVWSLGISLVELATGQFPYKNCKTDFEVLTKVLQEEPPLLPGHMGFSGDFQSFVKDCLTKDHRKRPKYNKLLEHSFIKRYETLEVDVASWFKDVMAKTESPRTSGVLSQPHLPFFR", "sequence of UniProt Q9UF33 (whole entry, looked up)": "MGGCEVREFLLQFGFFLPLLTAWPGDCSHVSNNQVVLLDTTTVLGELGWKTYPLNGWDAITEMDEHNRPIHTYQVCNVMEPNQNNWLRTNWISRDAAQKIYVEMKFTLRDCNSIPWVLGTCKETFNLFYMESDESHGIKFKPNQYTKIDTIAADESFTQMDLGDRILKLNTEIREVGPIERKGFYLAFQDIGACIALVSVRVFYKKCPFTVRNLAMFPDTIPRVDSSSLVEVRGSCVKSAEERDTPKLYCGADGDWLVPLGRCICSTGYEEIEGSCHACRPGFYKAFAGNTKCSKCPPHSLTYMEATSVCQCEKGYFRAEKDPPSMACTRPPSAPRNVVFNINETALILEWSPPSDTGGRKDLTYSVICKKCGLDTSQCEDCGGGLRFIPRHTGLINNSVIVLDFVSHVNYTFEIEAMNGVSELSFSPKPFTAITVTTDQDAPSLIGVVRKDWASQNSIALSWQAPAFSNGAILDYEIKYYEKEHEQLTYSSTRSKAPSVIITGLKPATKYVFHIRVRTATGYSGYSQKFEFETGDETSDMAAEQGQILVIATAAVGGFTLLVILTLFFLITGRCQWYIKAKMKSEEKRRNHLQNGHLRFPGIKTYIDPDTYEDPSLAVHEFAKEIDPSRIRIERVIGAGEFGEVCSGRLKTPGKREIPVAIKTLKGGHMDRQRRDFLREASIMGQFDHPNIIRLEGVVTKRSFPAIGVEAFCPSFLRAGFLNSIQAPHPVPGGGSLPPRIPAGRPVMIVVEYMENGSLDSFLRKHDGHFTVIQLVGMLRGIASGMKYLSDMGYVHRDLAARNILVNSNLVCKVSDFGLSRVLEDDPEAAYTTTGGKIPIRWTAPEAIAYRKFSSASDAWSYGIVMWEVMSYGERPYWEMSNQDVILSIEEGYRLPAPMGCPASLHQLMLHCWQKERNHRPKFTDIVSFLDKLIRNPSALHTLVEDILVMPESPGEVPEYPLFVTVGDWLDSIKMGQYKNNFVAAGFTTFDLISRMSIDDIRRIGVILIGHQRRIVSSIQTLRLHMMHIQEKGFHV", "sequence of UniProt P57059 (whole entry, looked up)": "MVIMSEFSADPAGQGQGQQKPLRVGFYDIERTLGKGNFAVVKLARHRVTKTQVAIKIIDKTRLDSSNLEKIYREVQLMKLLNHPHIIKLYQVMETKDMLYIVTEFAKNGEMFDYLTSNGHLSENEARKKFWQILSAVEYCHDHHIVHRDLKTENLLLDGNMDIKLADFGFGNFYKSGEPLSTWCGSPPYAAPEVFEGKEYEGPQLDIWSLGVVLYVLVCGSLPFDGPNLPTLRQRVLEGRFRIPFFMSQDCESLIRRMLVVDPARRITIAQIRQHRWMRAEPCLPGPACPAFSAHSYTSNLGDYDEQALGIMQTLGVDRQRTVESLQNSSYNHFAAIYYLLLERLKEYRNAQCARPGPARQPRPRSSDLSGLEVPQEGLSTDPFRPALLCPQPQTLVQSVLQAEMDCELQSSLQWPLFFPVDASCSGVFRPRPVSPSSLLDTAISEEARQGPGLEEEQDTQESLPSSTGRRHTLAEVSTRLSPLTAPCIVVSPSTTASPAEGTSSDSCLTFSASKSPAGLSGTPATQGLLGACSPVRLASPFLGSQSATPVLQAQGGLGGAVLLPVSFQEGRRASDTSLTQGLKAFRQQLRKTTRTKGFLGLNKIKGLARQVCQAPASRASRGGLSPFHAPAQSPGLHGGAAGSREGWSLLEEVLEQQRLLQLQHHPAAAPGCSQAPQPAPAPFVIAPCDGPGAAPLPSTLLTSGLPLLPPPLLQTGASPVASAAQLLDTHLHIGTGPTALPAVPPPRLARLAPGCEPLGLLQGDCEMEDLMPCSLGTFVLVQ", "sequence of UniProt P09619 (whole entry, looked up)": "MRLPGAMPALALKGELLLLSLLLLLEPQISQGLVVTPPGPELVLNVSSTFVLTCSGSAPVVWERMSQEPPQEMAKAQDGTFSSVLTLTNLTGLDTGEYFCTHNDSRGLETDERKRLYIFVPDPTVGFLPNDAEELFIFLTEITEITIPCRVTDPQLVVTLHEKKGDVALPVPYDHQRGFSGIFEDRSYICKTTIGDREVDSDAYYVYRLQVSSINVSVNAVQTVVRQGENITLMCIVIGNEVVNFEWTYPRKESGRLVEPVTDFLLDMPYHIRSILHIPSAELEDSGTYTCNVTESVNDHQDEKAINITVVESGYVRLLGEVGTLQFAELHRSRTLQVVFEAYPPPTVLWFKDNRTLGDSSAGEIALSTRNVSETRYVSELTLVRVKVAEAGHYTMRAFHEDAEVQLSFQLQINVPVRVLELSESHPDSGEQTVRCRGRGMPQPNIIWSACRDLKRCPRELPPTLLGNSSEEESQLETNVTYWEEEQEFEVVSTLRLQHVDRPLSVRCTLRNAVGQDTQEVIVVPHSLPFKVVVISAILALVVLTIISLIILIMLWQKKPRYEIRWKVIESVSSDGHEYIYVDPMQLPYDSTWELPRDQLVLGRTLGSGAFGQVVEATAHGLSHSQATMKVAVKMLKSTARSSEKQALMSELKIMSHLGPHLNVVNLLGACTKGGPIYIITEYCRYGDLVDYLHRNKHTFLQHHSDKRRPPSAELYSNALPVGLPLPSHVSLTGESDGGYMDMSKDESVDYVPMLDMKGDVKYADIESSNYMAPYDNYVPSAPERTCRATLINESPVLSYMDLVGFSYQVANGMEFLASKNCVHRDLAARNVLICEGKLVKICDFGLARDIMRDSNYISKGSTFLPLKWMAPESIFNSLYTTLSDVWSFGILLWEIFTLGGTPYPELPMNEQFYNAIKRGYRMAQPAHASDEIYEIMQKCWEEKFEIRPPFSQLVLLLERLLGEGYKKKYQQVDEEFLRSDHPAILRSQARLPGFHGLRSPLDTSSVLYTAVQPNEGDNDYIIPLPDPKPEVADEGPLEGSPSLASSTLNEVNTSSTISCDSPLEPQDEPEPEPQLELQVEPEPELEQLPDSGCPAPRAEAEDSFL", "sequence of UniProt Q8NI60 (whole entry, looked up)": "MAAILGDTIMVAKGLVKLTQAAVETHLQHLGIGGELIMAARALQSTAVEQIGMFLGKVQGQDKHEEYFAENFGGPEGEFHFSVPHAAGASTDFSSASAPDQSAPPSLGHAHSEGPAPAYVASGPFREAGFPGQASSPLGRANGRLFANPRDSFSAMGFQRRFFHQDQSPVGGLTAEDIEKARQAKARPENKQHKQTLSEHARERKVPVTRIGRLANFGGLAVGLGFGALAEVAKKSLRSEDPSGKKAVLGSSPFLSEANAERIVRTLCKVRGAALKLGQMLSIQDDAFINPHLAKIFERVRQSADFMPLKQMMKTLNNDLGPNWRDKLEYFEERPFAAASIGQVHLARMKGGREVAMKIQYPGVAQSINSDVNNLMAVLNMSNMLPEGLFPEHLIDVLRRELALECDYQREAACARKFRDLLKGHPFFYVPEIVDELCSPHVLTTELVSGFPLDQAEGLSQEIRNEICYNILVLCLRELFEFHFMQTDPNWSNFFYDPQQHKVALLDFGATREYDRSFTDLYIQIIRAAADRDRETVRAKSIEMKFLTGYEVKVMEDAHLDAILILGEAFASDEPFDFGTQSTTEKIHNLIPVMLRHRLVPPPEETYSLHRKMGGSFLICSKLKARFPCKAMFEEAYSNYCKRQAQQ"}
{"data": "Block 1", "host": "human", "matrix": "microsomes or S9", "tested at": "2 µM", "time": "0.5 h"}
{"SMILES": "COCc1nc2cc(-c3ccccc3CO)ccc2o1", "remaining compound [%]": 23.7}
{"SMILES": "Cc1cc(CNc2ccc(-c3nc(CCCc4ccccc4)no3)cn2)n[nH]1", "remaining compound [%]": 92.6}
{"SMILES": "CN(CC#N)C(=O)C1=C(c2ccccc2)OCCS1", "remaining compound [%]": 59.7}
{"SMILES": "C=CCOc1ccccc1C1CC(O)=Nc2c1c(C)nn2-c1ccc(O)nn1 (stereo not shown)", "remaining compound [%]": 13.5}
{"SMILES": "CN(c1ccccc1)c1ccc2oc(-c3cc(-c4cnn(C5CCNCC5)c4)cnc3N)nc2c1", "remaining compound [%]": "< 1"}
{"SMILES": "Cn1cncc1-c1cccc(-c2cn3cccc(C#N)c3n2)c1", "remaining compound [%]": 85.8}
{"SMILES": "Cc1cc(C#N)cc(NC(=O)C(F)(F)F)c1NC(=O)c1cc(Br)nn1-c1ncccc1Cl", "remaining compound [%]": 33}
{"data": "Block 2", "Compound": "CC(C)n1cnc(-c2ccc(F)cc2)c1-c1ncc(C(=O)Nc2ccc(N3CCN(C)CC3)cc2)[nH]1", "method": "phase 2a clinical trial", "host": "patients with idiopathic pulmonary fibrosis"}
{"test": "measured: idiopathic pulmonary fibrosis", "conditions": "60 mg once daily, Grade 1", "patients with treatment-emergent adverse events [%]": 0}
{"test": "measured: first degree atrioventricular block", "conditions": "60 mg once daily, Grade 3", "patients with treatment-emergent adverse events [%]": 0}
{"test": "measured: metabolism and nutrition disorders (SOC)", "conditions": "60 mg once daily, Grade 3", "patients with treatment-emergent adverse events [%]": 0}
{"test": "measured: C-reactive protein increased", "conditions": "30 mg once daily, Grade 4", "patients with treatment-emergent adverse events [%]": 0}
{"data": "Block 3", "SMILES": "CO[C@@H](C)c1c(Nc2ccc([C@@H](N(C)C(=O)C3CCS(=O)(=O)CC3)C(F)(F)F)cc2)cnc2cc(Cl)nn12", "tested at": "1 µM"}
{"target": "Cyclin-dependent kinase 19 (CDK19, Homo sapiens, UniProt Q9BWU1)", "test": "competition binding", "remaining binding [%]": 81}
{"target": "Cyclin-dependent kinase 2 (CDK2, Homo sapiens, UniProt P24941)", "test": "cell-free assay, competition with immobilised ligand", "remaining binding [%]": 100}
{"target": "Ephrin type-A receptor 5 (EPHA5, Homo sapiens, UniProt P54756)", "test": "cell-free assay, competition with immobilised ligand", "remaining binding [%]": 100}
{"target": "Ephrin type-A receptor 6 (EPHA6, Homo sapiens, UniProt Q9UF33)", "test": "cell-free assay, competition with immobilised ligand", "remaining binding [%]": 100}
{"target": "Serine/threonine-protein kinase mTOR (MTOR, Homo sapiens, UniProt P42345)", "test": "cell-free assay, competition with immobilised ligand", "remaining binding [%]": 100}
{"target": "Tyrosine-protein kinase SYK (SYK, Homo sapiens, UniProt P43405)", "test": "cell-free assay, competition with immobilised ligand", "remaining binding [%]": 90}
{"target": "Interferon-induced, double-stranded RNA-activated protein kinase (EIF2AK2, Homo sapiens, UniProt P19525)", "test": "cell-free assay, competition with immobilised ligand", "remaining binding [%]": 88}
{"target": "Platelet-derived growth factor receptor beta (PDGFRB, Homo sapiens, UniProt P09619)", "test": "cell-free assay, competition with immobilised ligand", "remaining binding [%]": 100}
{"target": "Dual specificity mitogen-activated protein kinase kinase 7 (MAP2K7, Homo sapiens, UniProt O14733)", "test": "cell-free assay, competition with immobilised ligand", "remaining binding [%]": 100}
{"target": "Tyrosine-protein kinase Lck (LCK, Homo sapiens, UniProt P06239)", "test": "cell-free assay, competition with immobilised ligand", "remaining binding [%]": 84}
{"target": "Mitogen-activated protein kinase kinase kinase 13 (MAP3K13, Homo sapiens, UniProt O43283)", "test": "cell-free assay, competition with immobilised ligand", "remaining binding [%]": 100}
{"target": "Serine/threonine-protein kinase Nek6 (NEK6, Homo sapiens, UniProt Q9HC98)", "test": "cell-free assay, competition with immobilised ligand", "remaining binding [%]": 100}
{"target": "Ribosomal protein S6 kinase alpha-5, C-terminal kinase domain (RPS6KA5, Homo sapiens, UniProt O75582)", "test": "cell-free assay, competition with immobilised ligand", "remaining binding [%]": 70}
{"target": "Serine/threonine-protein kinase SBK1 (SBK1, Homo sapiens, UniProt Q52WX2)", "test": "cell-free assay, competition with immobilised ligand", "remaining binding [%]": 100}
{"target": "Serine/threonine-protein kinase SIK1 (SIK1, Homo sapiens, UniProt P57059)", "test": "competition binding", "remaining binding [%]": 85}
{"target": "Atypical kinase COQ8A, mitochondrial (COQ8A, Homo sapiens, UniProt Q8NI60)", "test": "cell-free assay, competition with immobilised ligand", "remaining binding [%]": 100}
{"data": "Block 4", "Compound": "COc1cc(C(=O)N2CCC(N3CCN(C)CC3)CC2)ccc1Nc1ncc2c(n1)N(C)c1ccccc1C(=O)N2C"}
{"tested on": "human PBMC", "test": "probe labeling, inhibitor, KiNativ profiling", "test system": "cell lysate", "conditions": "concentration not given, domain 1, LYS1 site, with: ADP acyl-phosphate probe 0.1 µM", "inhibition [%]": -4.2}
{"tested on": "DCLK1", "test": "KiNativ ADP probe", "test system": "mouse brain lysate", "conditions": "1 µM, LYS1 site", "inhibition [%]": 66.5}
{"tested on": "CSK human", "test": "KiNativ profiling", "test system": "human PBMC", "conditions": "concentration not given, activation loop site, with: ATP acyl phosphate probe", "inhibition [%]": 10.4}
{"tested on": "WNK1/WNK2 (mouse)", "test": "probe labelling, inhibitor, KiNativ ActivX ATP probe", "test system": "mouse brain lysate", "conditions": "0.1 µM, ATP loop peptide GSFkTVYK", "inhibition [%]": 8.4}
{"tested on": "HCK (human)", "test": "probe labelling, KiNativ ATP probe", "test system": "human PBMC lysate", "conditions": "concentration not given, LYS1 labelled site", "inhibition [%]": 18.4}
{"tested on": "human PBMC", "test": "probe labeling, inhibitor, KiNativ profiling", "test system": "cell lysate", "conditions": "concentration not given, ATP site, with: ADP acyl-phosphate probe 0.1 µM", "inhibition [%]": -2}
{"tested on": "Serine/threonine-protein kinase MARK2 (Mark2, Mus musculus, UniProt Q05512)", "test": "KiNativ profiling", "test system": "mouse brain lysate", "conditions": "1 µM, LYS1 site, with: ADP acyl phosphate probe", "inhibition [%]": -4.4}
{"note": "Excerpt of the above (block 3):"}
{"target": "Tyrosine-protein kinase Lck (LCK, Homo sapiens, UniProt P06239)", "test": "cell-free assay, competition with immobilised ligand", "remaining binding [%]": 84}
{"target": "Ribosomal protein S6 kinase alpha-5, C-terminal kinase domain (RPS6KA5, Homo sapiens, UniProt O75582)", "test": "cell-free assay, competition with immobilised ligand", "remaining binding [%]": 70}
{"target": "Serine/threonine-protein kinase SBK1 (SBK1, Homo sapiens, UniProt Q52WX2)", "test": "cell-free assay, competition with immobilised ligand", "remaining binding [%]": 100}
{"target": "Serine/threonine-protein kinase SIK1 (SIK1, Homo sapiens, UniProt P57059)", "test": "competition binding", "remaining binding [%]": 85}
